Assay results pooled from the literature.
Each line is one published result; not all experiments were run side by side. Numbers after ± are the reported error.

SMILES	cell line	assay	test system	conditions	EC50
N.N.O=C([O-])C1(C(=O)[O-])CCC1.[Pt+2]	PEO4 platinum-resistant	cell viability			190000 nM
C[C@]12CCCN1CC1=NNC(=O)c3cc(F)cc4[nH]c2c1c34	NCI-N87			with: temozolomide	> 10000 nM
CCn1cc(-c2cc(Cn3ccnc3)cc3c2CCN([C@H](c2cc(OC)ccn2)C2CC2)C3=O)c(C(F)(F)F)n1	TOV21G	cell growth, inhibitor		120 h	9170 nM
c1cc(N2CCCC2)ccc1-c1cc2ncc(OCC3CCNCC3)nc2cc1-c1ccc(N2CCCC2)cc1	NB-4	cell proliferation, XTT		7 days	5200 ± 620 nM
COc1cc(-c2ccccc2)ncc1C(=O)Nc1ccc2c(=O)[nH]c(-c3ccc(C(C)(C)O)cc3)nc2c1	Apc Q1405X mutant organoids	organoid area, live-cell imaging	mouse small intestinal organoids	144 h, Tnks1 genotype Tnks1+/+	1800 nM
Cc1cc2c(C(N)=O)cccc2n1-c1nc2c(c(NCc3ccccc3)n1)COCC2	HEK-293T ATF4-FLuc reporter	reporter gene, activator			778 nM
c1cc(N2CCCCC2)ccc1Nc1cc2ncc(OCC3CCNCC3)nc2cc1-c1ccc(N2CCCCC2)cc1	NB-4	cell proliferation, XTT		7 days	1400 ± 90 nM
O=C(ONc1nc2nonc2nc1Nc1ccccc1F)c1ccccc1F	L6 rat myoblasts	oxygen consumption rate, Seahorse XF analyzer			> 100000 nM
CN1CC(Oc2cnc(C#N)cc2-c2ccn3nc(NC(=O)C4CC4)cc3c2)C1	dendritic cells, mouse, bone marrow-derived	cytokine release increase, item: IL-10		with: LPS	1030 nM
CC(C)Nc1ccnc(Nc2cccc(-c3cnccn3)c2)n1	MOLM-13 (FLT3-ITD)	cell viability, MTT		72 h	45 nM
CC(C)(O)c1ccn2c(-c3ccc(F)c(-c4ccc(F)cc4C#N)c3)cnc2c1F	HEK-293T ATF4-FLuc reporter	reporter gene, activator			4080 nM
CC1(C)CCC(CN2CCN(c3ccc(C(=O)NS(=O)(=O)c4ccc(NCC5CCOCC5)c([N+](=O)[O-])c4)c(Oc4cnc5[nH]ccc5c4)c3)CC2)=C(c2ccc(Cl)cc2)C1	canine unclassified myeloid leukaemia cells	cell killing		24 h	25 nM
c1cncc(-c2cccc(Nc3ccnc(NC4CCCCC4)c3)c2)c1	BJ	cell proliferation		72 h	8740 nM
COc1cnc2cccc(N3CCc4c(cc(Cn5ccnc5C)cc4-c4cn(C)nc4C(F)(F)F)C3=O)c2c1	MKN-74	cell growth, inhibitor		120 h	> 30000 nM
c1cncc(-c2cccc(Nc3nccc(NC4CCCCC4)n3)c2)c1	MOLM-13 (FLT3-ITD/D835Y)	cell viability, MTT		72 h	1150 nM
CCn1cc(-c2cc(Cn3ccoc3=N)cc3c2CCN([C@@H](C)c2cc(OC)ccn2)C3=O)c(C(F)(F)F)n1	HCC15	cell growth, inhibitor		120 h	> 30000 nM
CC(C)Nc1ccnc(Nc2cccc(-c3cccnc3)c2)n1	MOLM-13 (FLT3-ITD)	cell viability, MTT		72 h	136 nM
c1ccc(Oc2ccc(Nc3ccc4ncc(OCC5CCNCC5)nc4c3)cc2)cc1	NB-4	cell proliferation, XTT		7 days	1400 ± 210 nM

Some of these lines once more:
SMILES	cell line	assay	test system	conditions	EC50
CCn1cc(-c2cc(Cn3ccnc3)cc3c2CCN([C@H](c2cc(OC)ccn2)C2CC2)C3=O)c(C(F)(F)F)n1	TOV21G	cell growth, inhibitor		120 h	9170 nM
